Measured values collected from several papers.
Lines come from different studies, so protocols differ.
Matrix: plasma

| Compound | host | route | dose | time | notes | Cmax [ng/mL] |
| --- | --- | --- | --- | --- | --- | --- |
| Cc1cc(Nc2cc3ncccc3c(N[C@@H]3C[C@H]4CC[C@@H](C3)N4CCC#N)n2)n[nH]1 | beagle dog, female | oral | 10 mg/kg/day | last day of 39 weeks | – | 11.5 |
| O=c1[nH]c(=O)c(Cc2cccc(C(F)(F)F)c2)c([C@H]2CC[C@H](c3ccccc3)CC2)[nH]1 | human, fasted | oral | 900 mg single dose | – | geometric mean | 571 |
| O=C1N=C(N2CCOCC2)CN1c1ccc(Cl)cc1 | beagle dog, both sexes | oral | 30 mg/kg | – | tablets, fasted, day 0 | 19800 |
| CCCC[C@H](NC(C)=O)C(=O)N[C@H]1CCC(=O)NC[C@@H](C(=O)N[C@@H](Cc2c[nH]c3ccccc23)C(N)=O)NC(=O)[C@H](CCCNC(=N)N)NC(=O)[C@@H](Cc2ccccc2)NC(=O)[C@H](Cc2c[nH]cn2)NC1=O | beagle dog, female | subcutaneous | 40.0 mg/kg daily | day 14 | – | 1280 |
| Cc1nc2cccc(OCC(C)(C)C(=O)NC(C)C)c2c(N)c1C(=O)O | male Sprague-Dawley rat | dietary | 30 mg/kg/day | day 7 | – | 18.4 |
| CS(=O)(=O)Nc1ccc(C(=O)O[C@@H](Cc2c(Cl)c[n+]([O-])cc2Cl)c2ccc(OC(F)F)c(OCC3CC3)c2)cc1OCC1CC1 | human | inhaled | 100 µg once daily | day 7 | single-dose dry powder inhaler | 0.165 |
| CNCc1ccc(-c2[nH]c3cc(F)cc4c3c2CCNC4=O)cc1 | human patients | oral | 360 mg twice daily | day 1 | arithmetic mean | 666 |
| Cn1c(C(F)(F)F)cc(=O)n(-c2cc(Oc3cccnc3OCC(=O)O)c(Cl)cc2F)c1=O | beagle dog, male | oral capsule | 300 mg/kg/day epyrifenacil | week 13 | 90-day study | 2860 |
| CCCOc1ccc([C@H]2CNC(=O)N2c2ccc3[nH]cnc3c2)cc1 | human | oral | 1800 mg | – | single dose, fasted, healthy volunteers | 9680 |

For quick reference, copied from above:
| Compound | host | route | dose | time | notes | Cmax [ng/mL] |
| --- | --- | --- | --- | --- | --- | --- |
| O=c1[nH]c(=O)c(Cc2cccc(C(F)(F)F)c2)c([C@H]2CC[C@H](c3ccccc3)CC2)[nH]1 | human, fasted | oral | 900 mg single dose | – | geometric mean | 571 |
